Experimental data of several laboratories.
Each numbered part is a random draw from the data of one study; scales do not carry over between parts. Positions count from the first letter of the parent shown.

Series 1
Target: RNA binding protein fox-1 homolog 2, RRM domain, GST-SBP tag (RBFOX2, Homo sapiens, UniProt O43251-10, residues 100-194)
Technique: RNA Bind-n-Seq
Form: RNA
Medium: in vitro
Concentration: 365 nM
Setting: natural RNA segment, single round, ends assumed
Relative to: no-protein control
Reading: higher = stronger binding
Constant ends, left off below: GGGAGUUCUACAGUCCGACGAUC … UGGAAUUCUCGGGUGCCAA
Target sequence (chain): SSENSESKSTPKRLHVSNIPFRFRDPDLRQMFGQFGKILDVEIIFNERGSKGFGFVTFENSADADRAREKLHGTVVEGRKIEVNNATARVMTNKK
Sequence | RBNS enrichment (R)
CUGGGUGAGGCUCACCUGCCCAGGACCACAGUGGGACAGCCUGGGCAGGUGGGUGGCACAGCAUAAGAACCCAGCUGGGGCCAGCCCUCCCUGUCCUGGCUGGUCAGUGU | 0.72
CGCCCUGCCCGAGCAGCGUUCCUUUGGAGGGAGGCUGCAGAUCAUCCAGGGCUGCCCCUUCCGUUAUCCACCUCAUGAAUCACUGGCUGCAAUAAACAUCGAAGCACAGG | 0.419
CACUAACAUUUUGGGAAGGAGAGGCACAUAACUUUUUUUAACAUUUGGUAACUAGGUUAUGGGCUCUACAUUGUCAGCUACUUGGGAUAUAUAUUUAAUUUUCUUAAAUU | 0.387
GGGAACUCCUCUCCCCCAUUUUGUGUAGAGUGAAAAUAGCCUGAAGCCCCUACUCAGCAGGGCUCUGGGAAUGUGCCUUCCUUAUUUUAGUUUCAGAAUUGCUGGGAAAG | 2.11
ACUAAUGAAACAUUUAGAAAAACCCAGCUGUACCCAUAAGUGUUUAAAAAGAUAAACGGAUUUGAGCCUCCCUGAUUUCAAUCAAGAGCCCUGUGUGUGGAAUUCCAGAU | 0.395
UACGUCAUUUGUUAAUGCUUUUGUGAAGUGAGUUAAACGAGCUUUCUGUAUUUUAAUGCUUUAGUGUUUCAGUUUUAUAAGUGAAGAUUUUAUUUUAAAAACCAGUGGGA | 0.482
ACAUAACCAUCUGGAGUGUGUCCAGUUUAUUUUUCAUAGGACCAAUUUUUAUUUGCAGCUUAGGUUUUUAUAUGAAGUUGCAUUAUUGUGGACUUGGCUGUCUUGUGAUG | 2.07
UGUCCCCACUCUCCUGGCCUGACAAGAUGAGCUCUCCUGGGACCUUGCUCUAGGGCACUCUGCCUCUACCCUAGGACACUGGAAUGCCCUGGGAGCCCCCUCCCUGCAAC | 0.755
CCCUUUUCCUUUGUGUACUCUAUACUGGAGUUCCCUUCUUCCUCUUGCUGUAGGCUCAAUCCCAUACCGACAUCUACAACUAAUCUUUCCCAUCAACUCUGUGUGAAGGC | 0.504
UCAGUUCAGUGGAUAUAUGUAUGUAGAGAAAGAGAGGUAAUAUUUUGGGCUCUUAGCUUAGUCUGUUGUUUCAUGCAAACACCGUUGUAACCAAAAGCUUCUGCACUUUG | 0.552
CUGCUAUCUGUCCUUACUUGUGGGCUUCUCCAUGCUGUGCCAAUGGCUGGCUUUUUCUACACCCUCUUUUGAGUGUAGUUUGGUAUUUUGUAAUUGAGAGCUCAUUUCAA | 0.297
CAGAAAUAUUGACAAAUGCUGGCCAGCUUUAUCUUCCUAUAUCCUUCAUUAAAAGUAUAUGCAUAUAUUGUUGGUUUUUUUUCCUAAAUUGUGGCUUUGUUAAACAAUGU | 0.339

Series 2
Target: Histone acetyltransferase KAT6A, both winged helices, GST fusion (KAT6A, Homo sapiens, UniProt Q92794, residues 1-181)
Technique: protein binding microarray
Form: double-stranded DNA, one strand shown
Medium: in vitro
Concentration: not given
Setting: 8-mer, flanks averaged, mean of 2 arrays, mostly near background
Relative to: not given
Reading: higher = stronger binding
Residues (chain): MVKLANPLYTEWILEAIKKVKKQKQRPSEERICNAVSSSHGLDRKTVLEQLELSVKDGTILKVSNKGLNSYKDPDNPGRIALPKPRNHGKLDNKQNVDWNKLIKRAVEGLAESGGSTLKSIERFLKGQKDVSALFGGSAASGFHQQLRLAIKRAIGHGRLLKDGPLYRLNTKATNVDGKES
Sequence | E-score
ACCAGCTG | -0.0715
ATTTCAGA | -0.0461
GAGGCGAA | -0.0103
CAAGGTTC | -0.0522
TCGTTCAA | 0.0155
CCAACAAC | -0.231
GGCGGTAC | 0.182
AAATCCAT | -0.213
ATGTAAAG | -0.0523
AGGGTCGG | -0.00492
TCACCAAA | -0.0519
GAAAACAA | -0.177
ACCACTTA | -0.0723
ATAAAAAC | 0.0384
CCGATCAA | 0.0934
CTGCCAGC | -0.109
GGAGCAGA | -0.0563
CCACTCCA | -0.18
CCTTCGAG | -0.0268
AGGCTAAC | -0.167
CTTGGAGC | -0.207
ACGGATCA | 0.152

Series 3
Target: ABI1, truncated, D143A, DHFR fusion (Arabidopsis thaliana)
Technique: DHFR PCA, deep sequencing
Medium: yeast
Setting: methotrexate growth selection, single substitutions
With: (+)-ABA 710 µM
Relative to: wild-type fitted maximum
Reading: higher = stronger binding
Parent: PYL1, truncated, DHFR fusion (Arabidopsis thaliana); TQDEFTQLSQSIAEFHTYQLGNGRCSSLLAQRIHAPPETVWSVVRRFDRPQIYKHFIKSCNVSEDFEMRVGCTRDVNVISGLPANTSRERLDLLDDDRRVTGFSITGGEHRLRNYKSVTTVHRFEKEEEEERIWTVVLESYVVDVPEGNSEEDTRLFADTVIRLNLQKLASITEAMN; partner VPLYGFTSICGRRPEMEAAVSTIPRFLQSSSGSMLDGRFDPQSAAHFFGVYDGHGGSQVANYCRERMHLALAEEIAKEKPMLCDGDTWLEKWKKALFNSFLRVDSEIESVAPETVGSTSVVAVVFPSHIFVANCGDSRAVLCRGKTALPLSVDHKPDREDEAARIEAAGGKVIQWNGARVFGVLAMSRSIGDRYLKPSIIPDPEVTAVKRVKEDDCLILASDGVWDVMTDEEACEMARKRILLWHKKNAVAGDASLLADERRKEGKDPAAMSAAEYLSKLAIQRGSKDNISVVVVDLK
Variant | relative binding score
S63H | 98%
S171H | 101%
F66K | 103%
D96C | 82.5%
G108S | 49.9%
S42P | 96.1%
L112D | 4.89%
S80D | 56.8%
V161A | 44.5%
T86P | -0.662%
V142K | 88.1%
R163S | 91%
D159E | 100%
P146Y | 51.1%

Mixed results
Molecule | target | test | system | conditions | scale | quantity | value
PhoQ, residues 284 288 289 292 302 303 TNASYF | PhoP, residues 12 14 15 18 19 NMSSL (Escherichia coli, UniProt P23836) | Sort-seq, refers to: YFP reporter | E. coli | PhoQ-PhoP variant library, with: 10 µM Mg2+ | relative to: high Mg2+ state, higher = stronger signaling | fold induction | 0.103

Excerpt of the above (series 1):
Sequence | RBNS enrichment (R)
CCCUUUUCCUUUGUGUACUCUAUACUGGAGUUCCCUUCUUCCUCUUGCUGUAGGCUCAAUCCCAUACCGACAUCUACAACUAAUCUUUCCCAUCAACUCUGUGUGAAGGC | 0.504
ACAUAACCAUCUGGAGUGUGUCCAGUUUAUUUUUCAUAGGACCAAUUUUUAUUUGCAGCUUAGGUUUUUAUAUGAAGUUGCAUUAUUGUGGACUUGGCUGUCUUGUGAUG | 2.07
CAGAAAUAUUGACAAAUGCUGGCCAGCUUUAUCUUCCUAUAUCCUUCAUUAAAAGUAUAUGCAUAUAUUGUUGGUUUUUUUUCCUAAAUUGUGGCUUUGUUAAACAAUGU | 0.339
UACGUCAUUUGUUAAUGCUUUUGUGAAGUGAGUUAAACGAGCUUUCUGUAUUUUAAUGCUUUAGUGUUUCAGUUUUAUAAGUGAAGAUUUUAUUUUAAAAACCAGUGGGA | 0.482
UGUCCCCACUCUCCUGGCCUGACAAGAUGAGCUCUCCUGGGACCUUGCUCUAGGGCACUCUGCCUCUACCCUAGGACACUGGAAUGCCCUGGGAGCCCCCUCCCUGCAAC | 0.755
CGCCCUGCCCGAGCAGCGUUCCUUUGGAGGGAGGCUGCAGAUCAUCCAGGGCUGCCCCUUCCGUUAUCCACCUCAUGAAUCACUGGCUGCAAUAAACAUCGAAGCACAGG | 0.419
